Experimental data of several laboratories.
A part holds a random share of what one study measured.

Study 1
Target: Sal-like protein 4, full length isoform A (SALL4, Homo sapiens, UniProt Q9UJQ4, residues 1-1053)
Sequence of UniProt Q9UJQ4 (whole entry, looked up): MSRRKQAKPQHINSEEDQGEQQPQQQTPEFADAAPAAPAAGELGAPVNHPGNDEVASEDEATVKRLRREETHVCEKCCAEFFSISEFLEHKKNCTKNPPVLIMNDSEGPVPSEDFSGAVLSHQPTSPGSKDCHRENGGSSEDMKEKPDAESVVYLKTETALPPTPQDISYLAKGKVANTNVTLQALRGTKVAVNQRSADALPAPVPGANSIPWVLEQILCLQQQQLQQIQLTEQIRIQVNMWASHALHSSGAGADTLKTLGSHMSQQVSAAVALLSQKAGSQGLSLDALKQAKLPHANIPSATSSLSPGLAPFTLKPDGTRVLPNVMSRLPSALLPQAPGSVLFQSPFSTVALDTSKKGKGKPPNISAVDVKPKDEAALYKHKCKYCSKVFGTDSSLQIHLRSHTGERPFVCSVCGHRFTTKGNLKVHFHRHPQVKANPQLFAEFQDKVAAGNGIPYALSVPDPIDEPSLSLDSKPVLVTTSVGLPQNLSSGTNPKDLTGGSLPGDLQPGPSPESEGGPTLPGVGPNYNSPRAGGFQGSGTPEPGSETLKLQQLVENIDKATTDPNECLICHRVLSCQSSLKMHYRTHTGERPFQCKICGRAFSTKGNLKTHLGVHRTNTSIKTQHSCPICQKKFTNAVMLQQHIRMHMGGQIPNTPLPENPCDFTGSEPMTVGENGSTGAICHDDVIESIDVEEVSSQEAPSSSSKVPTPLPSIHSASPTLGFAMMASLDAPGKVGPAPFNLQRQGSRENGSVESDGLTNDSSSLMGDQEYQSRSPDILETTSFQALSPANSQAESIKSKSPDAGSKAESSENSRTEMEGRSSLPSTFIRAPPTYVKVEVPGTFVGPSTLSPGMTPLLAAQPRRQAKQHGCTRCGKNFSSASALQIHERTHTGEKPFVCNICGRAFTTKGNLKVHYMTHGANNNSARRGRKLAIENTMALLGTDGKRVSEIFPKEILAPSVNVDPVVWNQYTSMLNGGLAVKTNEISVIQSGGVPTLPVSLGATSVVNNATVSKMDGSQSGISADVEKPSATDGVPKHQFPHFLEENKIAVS
Method: universal PBM
Form: double-stranded DNA, one strand shown
Matrix: in vitro
Concentration: 600 nM
Setting: 8-mer, flanks averaged, mean of replicates
Reading: higher = stronger binding
Quantity: E-score
GTCTTTAA: 0.168
AGTGCCCA: -0.228
CACTGACG: -0.212
CTATCGTC: -0.044
TAGCTACA: 0.157

Study 2
Target: Histone acetyltransferase KAT6A, winged helix 2, GST fusion (KAT6A, Homo sapiens, UniProt Q92794, residues 85-181)
Method: protein binding microarray
Form: double-stranded DNA, one strand shown
Matrix: in vitro
Concentration: not given
Setting: 8-mer, flanks averaged, mean of 2 arrays, mostly near background
Reference: not given
Reading: higher = stronger binding
Quantity: E-score
Residues (chain): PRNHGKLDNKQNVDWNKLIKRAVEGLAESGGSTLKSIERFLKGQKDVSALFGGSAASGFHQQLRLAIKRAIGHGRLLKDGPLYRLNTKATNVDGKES
CCTAATCC: -0.166
CTGGCTCC: 0.0105
AGCTTCGA: 0.0376
CTAGGGAA: -0.0287
CGTATAAA: 0.15
CTTCCACC: -0.117
ACAATAAA: -0.0525
ACTGGCGA: 0.0125

Study 3
Cell line: HEK-293T/ACE2
Concentration: concentration not given
Time: 16 (unit not given)
Reference: vehicle
Quantity: viability
OC[C@@H](O)[C@@H](O)[C@H](O)[C@H](O)CO: 101%
COc1ccc(CN(C(=O)[C@@H](N)Cc2c(C)cc(C(N)=O)cc2C)[C@@H](C)c2nc(-c3ccccc3)c[nH]2)cc1C(=O)O: 97.5%
C[C@H]1C[C@H]2[C@@H]3CCC4=CC(=O)C=C[C@]4(C)[C@@]3(F)[C@@H](O)C[C@]2(C)[C@@]1(O)C(=O)CO: 102%
CNC[C@H](O)c1cccc(O)c1: 99%

Study 4
Target: Replicase polyprotein 1ab, polymerase (rep, Severe acute respiratory syndrome coronavirus 2, UniProt P0DTD1)
Observed: enzyme activity
Action: inhibitor
Concentration: 20 µM
Quantity: inhibition
CCC[N@+]12[C@H](O)[C@@H](CC)[C@@H]3C[C@H]1[C@@H]1N(C)c4ccccc4[C@]14C[C@H]2[C@H]3[C@H]4O: 1.34%
Oc1c(I)cc(Cl)c2cccnc12: -6.45%
CC(=O)OCC(=O)[C@@]1(OC(C)=O)[C@@H](C)C[C@H]2[C@@H]3C[C@H](F)C4=CC(=O)C=C[C@]4(C)[C@@]3(F)[C@@H](O)C[C@@]21C: 0.46%
COc1ccc(CCO[C@@H]2CCCC[C@H]2N2CC[C@@H](O)C2)cc1OC: -5.99%
CC1CC(OC(=O)C(O)c2ccccc2)CC(C)(C)C1 (stereo not drawn): -8.62%
CC(O)c1cc(C(=O)N[C@@H](C)Cn2ccc(-c3ccc(C#N)c(Cl)c3)n2)n[nH]1 (stereo partly drawn): 9.64%
CC[C@H](C(=O)N1CCCC[C@H]1C(=O)O[C@H](CCc1ccc(OC)c(OC)c1)c1cccc(OCC(=O)NCCNC(=O)COc2cccc([C@@H](CCc3ccc(OC)c(OC)c3)OC(=O)[C@@H]3CCCCN3C(=O)[C@@H](CC)c3cc(OC)c(OC)c(OC)c3)c2)c1)c1cc(OC)c(OC)c(OC)c1: 0.7%
COc1cccc(OC)c1-c1cc(C(=O)NC(CC(C)C)C(=O)O)nn1-c1ccnc2cc(Cl)ccc12 (stereo not drawn): 10.2%
O=c1[nH]cc(F)c(=O)[nH]1: 27.6%
Nc1c(S(=O)(=O)O)cc(Nc2cccc3ccccc23)c2c1C(=O)c1ccccc1C2=O: 53.2%
CC(C)CC(N)C1(c2ccc(Cl)cc2)CCC1 (stereo not drawn): 0.37%
CC(C)(C)c1ccc(S(=O)(=O)/C=C/C#N)cc1: 0.69%
CCC[S+]([O-])c1ccc2[nH]c(NC(=O)OC)nc2c1 (stereo not drawn): -0.49%
C=CC(=O)Nc1ccc2ncnc(Nc3ccc(OCc4cccc(F)c4)c(Cl)c3)c2c1: 4.3%
COc1ccc(Cc2nn3c([C@@H](CCCc4ccccc4)[C@@H](C)O)nc(C)c3c(=O)[nH]2)cc1OC: -1.42%
Cc1ccc([N+](=O)[O-])cc1S(=O)(=O)N(C)C: 5.63%
CC[N+](CC)(CC(=O)Nc1c(C)cccc1C)Cc1ccccc1: -4.1%
CC(=O)N[C@@H](CSC/C=C(\C)CC/C=C(\C)CCC=C(C)C)C(=O)O: 3.6%
O=C1Nc2ccc(I)cc2/C1=C/c1cc(Br)c(O)c(Br)c1: 6.81%
CC(=O)O[C@H]1CC[C@@]2(C)C(=CC(=O)[C@@H]3[C@@H]2CC[C@]2(C)C(=O)CC[C@@H]32)C1: -3.69%
CNc1ccc([N+](=O)[O-])cc1-n1cnc(-c2ccc(C(F)(F)F)cc2)c1: 1.07%
CC(=O)N1N=C(c2ccc(N)cc2)c2cc3c(cc2C[C@H]1C)OCO3: 3%
CCSC(=N)N: 0.64%
O=C(O)c1cc(=O)c2c(Cl)cc(Cl)cc2[nH]1: 6.55%
CCOC(=O)c1ncc2[nH]c3ccc(OCc4ccccc4)cc3c2c1COC: 0.33%

Study 5
Target: Interferon regulatory factor 3, full length, phosphomimetic (IRF3, Homo sapiens, UniProt Q14653, residues 1-427, S386D/S396D/S398D/S402D/T404D/S405D)
Method: protein-binding microarray
Form: double-stranded DNA, one strand shown
Matrix: in vitro
Concentration: 2540 nM top
Setting: 60-bp whole probe
Together with: salmon DNA 0.4 mg/ml
Reference: random background probes
Reading: higher = stronger binding
Quantity: fitted relative affinity
All sequences stand within: GCCTAGCAC … GTCTTGATTCGCTTGACGCTGCTG
Construct (chain): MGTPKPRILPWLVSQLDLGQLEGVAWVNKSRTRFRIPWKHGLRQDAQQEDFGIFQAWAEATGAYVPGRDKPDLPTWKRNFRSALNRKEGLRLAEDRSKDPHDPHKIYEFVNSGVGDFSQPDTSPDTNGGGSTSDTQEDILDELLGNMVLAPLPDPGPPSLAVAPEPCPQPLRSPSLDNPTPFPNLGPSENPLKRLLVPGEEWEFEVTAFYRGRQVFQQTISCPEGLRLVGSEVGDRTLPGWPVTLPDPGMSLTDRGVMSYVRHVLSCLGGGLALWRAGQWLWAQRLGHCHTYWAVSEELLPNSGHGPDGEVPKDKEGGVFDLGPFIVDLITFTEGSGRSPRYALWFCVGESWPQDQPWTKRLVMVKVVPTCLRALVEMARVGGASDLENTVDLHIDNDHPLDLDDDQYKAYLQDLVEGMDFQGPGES
TTAGGACTGGGGTTTCGGTTCGTGCTA: 3.52 z-score
ACTAGTTTTCATTTTCTGAAGTGCTAG: 5.18 z-score
TTAGGTTTCTGGTATCGGTTAGTGCTA: 2.7 z-score
GTAGATTTCAGTTTCGATTAGTGCTAG: 6.1 z-score
TTAGATATCGGGACTGGATTGGTGCTA: -0.0651 z-score
TTCACTTTAAATTAGACTTAGTGCTAG: 0.487 z-score
TTAGGATTCGACACTGGGTTAGTGCTA: -0.242 z-score
GACGAACTGGGGTATCGAGATGTGCTA: -0.224 z-score

Study 6
Target: Replicase polyprotein 1ab, 3C-like proteinase (rep, Middle East respiratory syndrome-related coronavirus, UniProt K9N7C7)
Observed: enzyme activity
Action: inhibitor
Concentration: 10 µM
Quantity: inhibition
Cc1ccc(S(=O)(=O)/C=C/C#N)cc1: 17%
COCCCOc1ccnc(C[S+]([O-])c2nc3ccccc3[nH]2)c1C (stereo not drawn): 46%
Oc1cc(CNC(=S)/C=C/c2cc(O)c(O)c(Br)c2)cc(O)c1O: 20%
Cc1ccccc1N(C)C(=O)c1ccc([S+]([O-])c2nccs2)c([N+](=O)[O-])c1 (stereo not drawn): 7%
